Measured values pooled from the literature.
Numbered parts are unrelated; each lists some results of a single study. Several values in a cell are separate wells, animals, samples, runs or records.

Series 1 — cell line: HCC1569; method: in-cell western; item: CDK1 phospho-Thr14; time: 24 h
Cc1ccc(O)c(C)c1-c1cnc2[nH]c(-c3cnc(N4CCC(CN5CCN(c6ccc(NC7CCC(=O)NC7=O)cc6F)CC5)CC4)nc3)cc2c1C#N (stereo not drawn) gave an IC50 of 53 nM.
The IC50 of Cc1ccc(O)c(C)c1-c1cnc2[nH]c(-c3cnc(N4CCC(CN5CCN(c6cc7c(cc6F)n(C6CCC(=O)NC6=O)c(=O)n7C)CC5)CC4)nc3)cc2c1C#N (stereo not drawn) is reported as 136 nM.
The IC50 of Cc1ccc(O)c(C)c1-c1cnc2[nH]c(-c3cnc(N4CCC(CN5CCN(c6cc7c(cc6F)c(N6CCC(=O)NC6=O)nn7C)CC5)CC4)nc3)cc2c1C#N is reported as 55 nM.
Cc1ccc(O)c(C)c1-c1cnc2[nH]c(-c3cnc(N4CC5(CC(CN6CCN(c7ccc(NC8CCC(=O)NC8=O)cc7F)CC6)C5)C4)nc3)cc2c1C#N (stereo not drawn) gave an IC50 of 14 nM.
Cc1ccc(O)c(C)c1-c1cnc2[nH]c(-c3cnc(N4CCC(CN5CCN(c6ccc7c(c6)C(=O)N(C6CCC(=O)NC6=O)C7=O)CC5)CC4)nc3)cc2c1C#N (stereo not drawn) has an IC50 of 29 nM.
The IC50 of Cc1ccc(O)c(C)c1-c1cnc2[nH]c(-c3cnc(N4CCC5(CC4)CC(CN4CCN(c6ccc(NC7CCC(=O)NC7=O)cc6F)CC4)C5)nc3)cc2c1C#N (stereo not drawn) is reported as 74 nM.
The IC50 of Cc1ccc(O)c(C)c1-c1cnc2[nH]c(-c3cnc(N4CCC5(CC4)CC(N4CCN(c6ccc(NC7CCC(=O)NC7=O)cc6F)CC4)CO5)nc3)cc2c1C#N (stereo not drawn) is reported as 18 nM.
With Cc1ccc(O)c(C)c1-c1cnc2[nH]c(-c3cnc(N)nc3)cc2c1C#N the IC50 was 44 nM.

Series 2 — read-out: enzyme activity
Compound: NC/C(=C\F)COc1ccc(C(F)(F)F)c(Cn2c(=S)[nH]c(=O)c3[nH]cnc32)c1
Target: Myeloperoxidase (MPO, Homo sapiens, UniProt P05164)
Chain of UniProt P05164 (whole entry, looked up): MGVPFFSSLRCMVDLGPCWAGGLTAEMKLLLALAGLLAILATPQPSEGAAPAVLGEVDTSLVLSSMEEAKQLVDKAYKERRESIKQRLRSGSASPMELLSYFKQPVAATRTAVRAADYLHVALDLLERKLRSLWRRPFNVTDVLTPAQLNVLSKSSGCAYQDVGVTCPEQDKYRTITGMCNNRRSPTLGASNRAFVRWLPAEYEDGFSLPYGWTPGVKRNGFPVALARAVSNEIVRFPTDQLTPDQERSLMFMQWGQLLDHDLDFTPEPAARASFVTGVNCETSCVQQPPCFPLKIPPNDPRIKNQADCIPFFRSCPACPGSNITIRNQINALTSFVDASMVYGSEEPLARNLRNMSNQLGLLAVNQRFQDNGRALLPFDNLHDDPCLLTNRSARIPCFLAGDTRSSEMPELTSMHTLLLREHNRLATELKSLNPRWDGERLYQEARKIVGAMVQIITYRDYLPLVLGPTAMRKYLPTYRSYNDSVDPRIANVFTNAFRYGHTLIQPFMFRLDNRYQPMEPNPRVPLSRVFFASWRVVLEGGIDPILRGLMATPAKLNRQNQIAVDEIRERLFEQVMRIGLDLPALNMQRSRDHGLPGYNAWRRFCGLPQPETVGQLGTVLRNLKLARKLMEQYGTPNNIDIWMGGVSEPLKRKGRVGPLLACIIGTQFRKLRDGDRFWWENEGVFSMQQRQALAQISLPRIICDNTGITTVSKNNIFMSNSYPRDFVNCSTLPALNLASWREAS
For inhibitor, fluorescence; 3.333 µM: inhibition read 98.7%.
For 3.333 µM: inhibition read 98.6%.
For 0.0005 µM: inhibition read 9.84% and -22.3%.
0.1235 µM — inhibition: 76.2% and 68.6%.
The inhibition was -15.5% and 11.5% (0.0015 µM).

Series 3 — method: DNA microarray; reference: untreated cells
SMILES: COCC1CC2C(CCC3(C)C(O)CCC23)c2ccc(O)cc21 (stereo not drawn)
A549; item: MCM10; concentration not given — “log2 fold change”: -0.969.
PANC-1; item: IL23R; concentration not given — “log2 fold change”: 6.23.
It gave -0.127 for “log2 fold change” (SK-OV-3; item: MCM6; concentration not given, lower dose arm).
For A549; item: IL23R; 50 µM: “log2 fold change” read 3.42.
For PANC-1; item: KIF20A; concentration not given, higher dose arm: “log2 fold change” read -1.9 and -1.85 and -1.82 and -1.86.
For PANC-1; item: GDF15; concentration not given: “log2 fold change” read 2.39.
A549; item: MCM7; concentration not given — “log2 fold change”: -0.732.
PANC-1; item: GTSE1; concentration not given, higher dose arm — “log2 fold change”: -1.26.

Series 4 — mode: degrader
SMILES: Cn1cc(-c2cccc(CN3CCC4(CC3)COc3c4ccc4c3CN([C@H]3CCC(=O)NC3=O)C4=O)c2)cn1
Target: CRBN/Zinc finger protein Helios (Homo sapiens, UniProt Q96SW2+Q9UKS7)
Chain of UniProt Q9UKS7 (whole entry, looked up): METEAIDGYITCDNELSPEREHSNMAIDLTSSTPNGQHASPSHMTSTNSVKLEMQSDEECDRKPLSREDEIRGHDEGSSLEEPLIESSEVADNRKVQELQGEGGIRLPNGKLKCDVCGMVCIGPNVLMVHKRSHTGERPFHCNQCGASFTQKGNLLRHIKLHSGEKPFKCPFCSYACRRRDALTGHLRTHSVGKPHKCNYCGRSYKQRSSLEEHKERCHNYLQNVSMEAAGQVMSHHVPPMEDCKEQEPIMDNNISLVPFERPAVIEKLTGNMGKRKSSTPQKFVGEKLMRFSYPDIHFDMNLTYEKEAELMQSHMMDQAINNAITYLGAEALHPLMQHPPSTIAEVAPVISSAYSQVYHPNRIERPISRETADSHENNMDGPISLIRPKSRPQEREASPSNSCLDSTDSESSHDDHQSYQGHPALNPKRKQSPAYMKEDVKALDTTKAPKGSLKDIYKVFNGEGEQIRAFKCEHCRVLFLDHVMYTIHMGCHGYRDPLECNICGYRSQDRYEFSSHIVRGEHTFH
Chain of UniProt Q96SW2 (whole entry, looked up): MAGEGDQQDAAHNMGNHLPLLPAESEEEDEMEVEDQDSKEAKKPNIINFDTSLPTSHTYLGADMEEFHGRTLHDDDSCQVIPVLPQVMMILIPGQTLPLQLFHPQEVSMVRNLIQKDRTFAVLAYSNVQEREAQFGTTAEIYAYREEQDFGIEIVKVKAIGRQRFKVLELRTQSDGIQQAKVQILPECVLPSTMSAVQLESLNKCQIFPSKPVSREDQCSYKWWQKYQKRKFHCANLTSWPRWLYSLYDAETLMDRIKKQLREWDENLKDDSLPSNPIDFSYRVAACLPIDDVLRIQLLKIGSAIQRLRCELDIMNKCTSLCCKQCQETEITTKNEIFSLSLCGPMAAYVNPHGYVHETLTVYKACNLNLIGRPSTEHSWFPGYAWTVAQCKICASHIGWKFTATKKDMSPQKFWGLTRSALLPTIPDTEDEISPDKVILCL
For protein level: DC50 read roughly 6 nM.
Western blot, item: Helios; Jurkat, CRBN expressing — DC50: less than 37.4 nM.
It gave roughly 6 nM for DC50 (flow cytometry, item: Helios; human primary regulatory T cells; 6 h).

Repeated from above (series 1):
Cc1ccc(O)c(C)c1-c1cnc2[nH]c(-c3cnc(N4CCC(CN5CCN(c6ccc7c(c6)C(=O)N(C6CCC(=O)NC6=O)C7=O)CC5)CC4)nc3)cc2c1C#N (stereo not drawn) has an IC50 of 29 nM.
